Results collected from several papers.
Each numbered part is a random draw from the data of one study; scales do not carry over between parts. Substitutions count along the parent as printed.

Block 1
Target: CCND2, cyclin fold, Cln2 fusion (human)
Technique: yeast growth competition, sequencing
Matrix: yeast
Notes: weak parent motif
Relative to: not given
Direction: higher = stronger binding
Measurement: normalised enrichment score
Starting sequence: CDC6 docking peptide (human); TLKGRRLVFDNQL
R5F: 0.353
L7K: 0.289
G4A: 0.35
F9D: 0.281
N11D: 0.644
V8P: -0.0742
Q12W: 0.526
F9P: 0.395

Block 2
Target: Cyclic AMP-responsive element-binding protein 1 (CREB1, Homo sapiens, UniProt P16220, residues 1-327, full length assumed)
UniProt P16220, sequence (whole entry, looked up): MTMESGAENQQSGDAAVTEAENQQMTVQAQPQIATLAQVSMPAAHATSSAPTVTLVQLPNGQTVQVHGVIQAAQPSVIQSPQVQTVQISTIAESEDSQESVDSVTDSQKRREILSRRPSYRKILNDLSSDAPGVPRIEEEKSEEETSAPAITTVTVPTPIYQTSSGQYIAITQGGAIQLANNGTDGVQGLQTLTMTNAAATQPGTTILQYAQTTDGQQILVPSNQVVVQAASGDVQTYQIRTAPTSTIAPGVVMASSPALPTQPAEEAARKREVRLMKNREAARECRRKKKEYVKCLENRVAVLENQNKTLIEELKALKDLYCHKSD
Technique: protein-binding microarray
Form: double-stranded DNA, one strand shown
Matrix: in vitro
Concentration: not given
Notes: k-mer, scored over probes, only values ≥0.25
Direction: higher = stronger binding
Measurement: E-score
AACGTTA: 0.295
ATGACGG: 0.296
ACGTGAT: 0.28
ATAACAA: 0.276
ATTACGA: 0.277
GTTATAA: 0.265
AAGTGAC: 0.257
CGATGAC: 0.32

Other studies, line by line
SMS (Homo sapiens, UniProt P52788) — cross-linked residues (SMARCE1 (Homo sapiens, UniProt Q969G3); cross-linking MS; cell fractions; with: DSSO): K192 to K228
MELSLRAIQ — binding (HLA class I histocompatibility antigen, A alpha chain, allele A*80:01 (Homo sapiens, UniProt P04439); peptide-MHC binding; peptide; concentration not given): inactive
EIF5B (Homo sapiens, UniProt O60841) — cross-linked residues (LILRB5 (Homo sapiens, UniProt O75023); cross-linking MS; cell fractions; with: DMTMM): E884 to K80
NDUFS8 (Homo sapiens, UniProt O00217) — cross-linked residues (NDUFA12 (Homo sapiens, UniProt Q9UI09); cross-linking MS; cell fractions; with: DSSO): K88 to K43
EMC8 (Homo sapiens, UniProt O43402) — interaction screen (EMC2 (Homo sapiens, UniProt Q15006); cross-linking MS; hits only): cross-linked

For quick reference, copied from above (block 1):
L7K: 0.289
